Assay results pooled from the literature.
Several values in a cell are separate wells, animals, samples, runs or records. ± marks the error that the study gave.
Chain of UniProt P08908 (whole entry, looked up): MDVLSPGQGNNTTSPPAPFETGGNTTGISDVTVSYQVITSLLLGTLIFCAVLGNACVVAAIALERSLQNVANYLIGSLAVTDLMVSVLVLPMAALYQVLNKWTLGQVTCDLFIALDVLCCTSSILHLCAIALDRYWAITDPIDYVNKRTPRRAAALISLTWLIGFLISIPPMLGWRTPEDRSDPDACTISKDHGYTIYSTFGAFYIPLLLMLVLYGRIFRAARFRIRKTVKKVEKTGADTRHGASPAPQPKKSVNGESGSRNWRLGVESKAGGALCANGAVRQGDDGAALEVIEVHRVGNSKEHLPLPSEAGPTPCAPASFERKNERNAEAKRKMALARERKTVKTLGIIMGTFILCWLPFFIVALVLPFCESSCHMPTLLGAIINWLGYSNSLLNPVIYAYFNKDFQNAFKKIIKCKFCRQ

COC(=O)N[C@H](C(=O)N1CCC[C@H]1C(=O)Nc1ccc([C@@H]2CC[C@@H](c3ccc(NC(=O)[C@@H]4CCCN4C(=O)[C@@H](NC(=O)OC)C(C)C)cc3)N2c2ccc(C(C)(C)C)cc2)cc1)C(C)C  Cmax (healthy human volunteers, plasma; oral, dose not given, rosuvastatin interaction study; reference: given without rosuvastatin): 123 ng/mL
CC(=O)[O][Pt]([NH2])([Cl])([Cl])([NH]C1CCCCC1)[O]C(C)=O  Cmax (rhesus monkey, cerebrospinal fluid; intravenous infusion, 6 mg/kg, 1 h infusion): 120 nM and 20 nM and 50 nM and 90 nM
O=c1[nH]c(Cc2ccccn2)nc2c1cnn2C1CCOCC1  Cmax (healthy men, extensive metabolizers, plasma; oral, 100 mg single dose, tablet, geometric mean): 1370 nM
CC[C@@]1(O)C(=O)OCc2c1cc1n(c2=O)Cc2cc3c(CN(C)C)c(O)ccc3nc2-1  Cmax (human patients, plasma; oral, 2.5 mg daily for 5 days, day 5 cycle 1, geometric mean, alone): 7.52 ng/mL
CC(C)c1nc(CN(C)C(=O)N[C@H](C(=O)N[C@@H](Cc2ccccc2)C[C@H](O)[C@H](Cc2ccccc2)NC(=O)OCc2cncs2)C(C)C)cs1  Cmax (healthy human volunteers, plasma; oral, dose not given, alone, pravastatin interaction study): 706 ng/mL
CP(=O)(O)CCC(N)C(=O)O (stereo not drawn)  herbicidal activity (Amaranthus palmeri; 125 g/ha, 13 days, AMAPA, post-emergence spray; reference: untreated (0%), complete kill (100%)): 100%
[123I]c1cncc(OC[C@@H]2CCN2)c1  tissue/plasma ratio (SPECT; human, cerebellum; intravenous bolus, 8.6 mCi; reference: tissue over plasma): 12.4
CCCCCOc1ccc(-c2cc(-c3ccc(C(=O)N[C@H]4C[C@@H](O)[C@@H](O)NC(=O)[C@@H]5[C@@H](O)[C@@H](C)CN5C(=O)[C@H]([C@H](O)CC(N)=O)NC(=O)[C@H]([C@H](O)[C@@H](O)c5ccc(O)c(OS(=O)(=O)O)c5)NC(=O)[C@@H]5C[C@@H](O)CN5C(=O)[C@H]([C@@H](C)O)NC4=O)cc3)no2)cc1  Cmax (young infants, plasma; intravenous, 7 and 10 mg/kg/day pooled, day 4, mean, repeat dosing): 27300 ng/mL
Cc1cc(=O)[nH]c2c1NC(=O)c1cccnc1N2C1CC1  Cmax (olive baboon (Papio anubis), non-pregnant, serum; oral, 800 mg nevirapine, tablet): 5.6 ± 4.34 ng/mL
c1ccc(CCN2CCCCC2)cc1  Ki (5-hydroxytryptamine receptor 1A (HTR1A, Homo sapiens, UniProt P08908); binding; HA7; added: [3H]8-OH-DPAT 0.50 nM): 4.99 ± 0.33 µM
CN[C@@](C)(C[18F])C(=O)O  tracer uptake (SK-OV-3 tumour model; host not given, heart; 15 min, tumour-bearing): 2.3 %ID/g
C[C@H]1CNCCc2ccc(Cl)cc21  Tmax (male Sprague-Dawley rat, plasma; subcutaneous, 1 mg/kg, single dose): 15 min
COc1ccc(C[C@@H]2NC(=O)[C@H]([C@@H](C)O)NC(=O)[C@@H]3[C@@H]4CCN3C(=O)[C@@H]3Cc5cn(c6ccc(F)cc56)CCCCCCN(Cc5ccc(cc5)CCNC(=O)[C@]5(C)CCCN5C2=O)C(=O)CCC(=O)N[C@@H](C)C(=O)N[C@H](CNC(=O)CCCCC[N+](C)(C)C)C(=O)N[C@@H](Cc2cccc(c2)CNC(=O)CO4)C(=O)N3)cc1  Cmax (fasted healthy humans, plasma; oral, 35 mg single dose, with 1800 mg Labrasol, geometric mean): 17.8 nM
Cc1cnc(C(=O)N[C@H]2CCCCC/C=C\[C@@H]3C[C@@]3(C(=O)NS(=O)(=O)C3CC3)NC(=O)[C@@H]3C[C@@H](Oc4nc5ccccc5c5ccccc45)CN3C2=O)cn1  Cmax (healthy human volunteers, plasma; oral, dose not given, added: escitalopram plus 2D regimen): 540 ng/mL
CC[C@H](C)[C@H](NC(=O)[C@@H](N)CCCNC(=N)N)C(=O)N[C@H](C(=O)N1CCC[C@H]1C(=O)N[C@@H](C)C(N)=O)C(C)C  Cmax (human, plasma; intravenous, 1 mg/kg, single dose, healthy volunteers): 4330 ng/mL
CNC(C)Cc1ccc2c(c1)OCO2 (racemic)  mood rating (visual analog scale, measured: Restless; human; oral, 0.75 mg/kg, mean over session, unit not given; reference: pre-dose baseline): 18.1
O[C@H]1CCCN[C@@H]1CCCn1cnc2c(Cl)c(Cl)ccc21  Cmax (human, plasma; oral, 300 mg, single dose, healthy volunteers): 277 ng/mL
Cc1cc(C(C#N)c2ccc(Cl)cc2)c(Cl)cc1NC(=O)c1cc(I)cc(I)c1O (stereo not drawn)  Cmax (parasitized Corriedale lambs, plasma; subcutaneous, 5 mg/kg): 119000 ± 24900 ng/mL

For quick reference, copied from above:
Cc1cc(=O)[nH]c2c1NC(=O)c1cccnc1N2C1CC1  Cmax (olive baboon (Papio anubis), non-pregnant, serum; oral, 800 mg nevirapine, tablet): 5.6 ± 4.34 ng/mL
CC(=O)[O][Pt]([NH2])([Cl])([Cl])([NH]C1CCCCC1)[O]C(C)=O  Cmax (rhesus monkey, cerebrospinal fluid; intravenous infusion, 6 mg/kg, 1 h infusion): 120 nM and 20 nM and 50 nM and 90 nM
COc1ccc(C[C@@H]2NC(=O)[C@H]([C@@H](C)O)NC(=O)[C@@H]3[C@@H]4CCN3C(=O)[C@@H]3Cc5cn(c6ccc(F)cc56)CCCCCCN(Cc5ccc(cc5)CCNC(=O)[C@]5(C)CCCN5C2=O)C(=O)CCC(=O)N[C@@H](C)C(=O)N[C@H](CNC(=O)CCCCC[N+](C)(C)C)C(=O)N[C@@H](Cc2cccc(c2)CNC(=O)CO4)C(=O)N3)cc1  Cmax (fasted healthy humans, plasma; oral, 35 mg single dose, with 1800 mg Labrasol, geometric mean): 17.8 nM
